Experimental data of several laboratories.
Compare with care: the assays were run in different laboratories. ± marks the error that the study gave.
WRN: Bifunctional 3'-5' exonuclease/ATP-dependent helicase WRN (WRN, Homo sapiens, UniProt Q14191)
Enoyl-[acyl-carrier-protein] reductase [NADPH] FabI: Enoyl-[acyl-carrier-protein] reductase [NADPH] FabI (Staphylococcus aureus, UniProt Q6GI75)
POLB I260M: DNA polymerase beta (POLB, Homo sapiens, UniProt P06746, I260M)
SCTR: Secretin receptor (SCTR, Homo sapiens, UniProt P47872)
T1: ssRNA FMR1 5' UTR CGG repeat (Homo sapiens); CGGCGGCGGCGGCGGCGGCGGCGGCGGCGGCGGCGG

COc1ccc(-c2cc(C(F)(F)F)nc(S(=O)(=O)CCC(=O)Nc3ccc(C)cc3)n2)cc1  dialkylated protein (WRN; intact protein mass spectrometry; overnight, 4 °C, relative peak abundance, added: 10-fold compound excess): < 10%
O=C(O)c1ccnc(C(=O)O)c1Br  remaining activity (Egl nine homolog 1 (EGLN1, Homo sapiens, UniProt Q9GZT9); inhibitor, HTRF; 400 µM): 100%
C[n+]1cn(C2OC(COP(=O)(O)OP(=O)([O-])OP(=O)(O)OCC3OC(n4cnc5c(=O)[nH]c(N)nc54)C(O)C3O)C(O)C2O)c2nc(NCc3ccccc3)[nH]c(=O)c21 (centres unmarked)  melting temperature (Eif4e (Mus musculus, UniProt P63073); differential scanning fluorimetry; 100 µM): 50.7 °C
CN1CCN(CC(=O)N2N=C3/C(=C/c4ccccc4)CCCC3C2c2ccccc2)CC1 (mixture of isomers)  enzyme activity (ALOX15B (Homo sapiens, UniProt O15296); activator; 10 µM, added: arachidonic acid 10 µM; reference: activator 0 µM): 74.4%
CCCN(CC(=O)N(CCC)CC(=O)N(CCC)CC(=O)N(CCC)CC(=O)N(CC(N)=O)Cc1cn(CCCNC(=O)CCCOc2cccc(-c3nc4ccc(-c5nc6ccc(N7CCN(C)CC7)cc6[nH]5)cc4[nH]3)c2)nn1)C(=O)CNCc1cn(CCCNC(=O)CCCOc2cccc(-c3nc4ccc(-c5nc6ccc(N7CCN(C)CC7)cc6[nH]5)cc4[nH]3)c2)nn1  IC50 (T1, ssRNA FMR1 5' UTR CGG repeat (Homo sapiens); protein displacement, competitor, TR-FRET): 20 µM
CCCCCCc1ccc(Oc2ccc(Oc3cccc(=O)[nH]3)cc2)c(O)c1  residence time (Enoyl-[acyl-carrier-protein] reductase [NADPH] FabI; binding): 345 min
O=C1CC(c2ccccc2)N1S(=O)(=O)c1ccc(-c2ccccc2)cc1 (centres unmarked)  remaining activity (Rhomboid protease AarA (Providencia stuartii, UniProt P46116); enzyme activity, inhibitor; 100 µM): 71 to 86%
CC(C)C[C@H](N)C(=O)N[C@@H](C)C(=O)N[C@H](C(=O)N[C@@H](CCCCN)C(=O)N[C@@H](C)C(=O)N[C@@H](C)C(=O)N[C@@H](CCCNC(=N)N)C(=O)N[C@@H](CCCC[N+](C)(C)C)C(=O)N[C@@H](CO)C(=O)N[C@@H](C)C(=O)N1CCC[C@H]1C(=O)N[C@@H](C)C(=O)N[C@H](C(=O)NCC(=O)NCC(=O)N[C@H](C(=O)O)C(C)C)[C@@H](C)O)[C@@H](C)O  binding (EBS BAH domain Y49A/W70L/Y72A (Arabidopsis thaliana); concentration not given): inhibited
CC[C@H](C)[C@H](NC(=O)[C@H](Cc1ccc(O)cc1)NC(=O)[C@@H](NC(=O)[C@H](CCCNC(=N)N)NC(=O)[C@@H](N)CC(=O)O)C(C)C)C(=O)N[C@@H](Cc1c[nH]cn1)C(=O)N1CCC[C@H]1C(=O)O  Vmax (angiotensin peptidase, sheep CSF; substrate; CSF of control sheep; added: inhibitor cocktail): 84 nmol/min/mg protein
NC(=O)C1CCNC(=O)C(Cc2ccc([N+](=O)[O-])cc2)NC(=O)C(Cc2ccco2)NC(=O)C(CC2CC2)NC(=O)C=CC(=O)N1 (centres unmarked)  enrichment factor (KDR (Homo sapiens, UniProt P35968); DNA-templated library selection; one selection round): 1.6
Cc1cc(=O)oc2cc(NC(=O)CCCCCCC(=O)NO)ccc12  protons released on binding (HDAC8 (Homo sapiens, UniProt Q9BY41); ITC in four buffers; concentration not given, pH 7.5): 0 ± 0.01 protons per ligand
CCCCCCCC/C=C\CCCCCCCC(=O)O[C@H]1C=CCO[C@@H]1COP(=O)(O)S (some centres unmarked)  Emax (LPAR2 (Homo sapiens, UniProt Q9HBW0); agonist, TGFα shedding): 39%
CC[C@H](C)[C@@H]1NC(=O)[C@H](Cc2ccccc2)NC(=O)[C@H](CCC(=O)O)NC(=O)[C@H](CCCNC(=N)N)NC(=O)CNC(=O)[C@@H](NC(=O)[C@H](CC(C)C)NC(=O)[C@H](CCCNC(=N)N)NC(=O)[C@@H](NC(=O)CNC(=O)[C@H](Cc2ccc(O)cc2)NC(=O)[C@@H]2CCCN2C(=O)[C@H](C)NC(=O)[C@H](C)NC(=O)[C@@H](N)CCCNC(=N)N)C(C)C)CSSC[C@@H]2NC(=O)[C@@H](NC(=O)[C@H](CO)NC(=O)[C@H](CO)NC(=O)[C@H](CO)NC(=O)[C@H](CC(C)C)NC(=O)CNC(=O)[C@H](C)NC(=O)[C@H](CC(C)C)NC(=O)[C@@H](NC(=O)[C@@H](N)CC(=O)O)C(C)C)CSSC[C@H](NC(=O)CNC(=O)[C@H](Cc3c[nH]c4ccccc34)NC(=O)[C@H](CCCCN)NC2=O)C(=O)N[C@@H](CO)C(=O)N[C@@H](CCCCN)C(=O)N[C@@H](CO)C(=O)N[C@@H](CCC(=O)O)C(=O)N[C@@H]([C@@H](C)CC)C(=O)N[C@@H](CO)C(=O)N[C@@H](CO)C(=O)N[C@@H](CC(C)C)C(=O)N[C@H](C(=O)O)CSSC[C@@H](C(=O)NCC(=O)NCC(=O)N[C@@H](CO)C(=O)N[C@@H](CCCNC(=N)N)C(=O)N[C@@H](Cc2c[nH]c3ccccc23)C(=O)O)NC(=O)[C@H]([C@@H](C)O)NC(=O)[C@H](Cc2ccccc2)NC(=O)[C@H]([C@@H](C)CC)NC(=O)[C@H](C(C)C)NC(=O)[C@H](C)NC(=O)[C@H](CCCNC(=N)N)NC1=O  potency reduction (RXFP4 (Homo sapiens, UniProt Q8TDU9, L192A); cAMP response, agonist; concentration not given, L192A mutant; reference: wild type): 58 fold
Nc1nc2c(ncn2C2CC(O)C(COP(=O)(O)OP(=O)(O)C(Br)P(=O)(O)O)O2)c(=O)[nH]1 (mixture of isomers)  kpol/Kd (POLB I260M; nucleotide incorporation, substrate, single turnover kinetics; dG misincorporation opposite A): 8.8e-06 ± 3.8e-06 µM⁻¹ s⁻¹
CC(=O)N[C@@H](CC(=O)O)C(=O)N[C@@H](CCC(=O)O)C(=O)N[C@H](C(=O)N[C@@H](CC(=O)O)C(=O)Nc1ccc2c(C)cc(=O)oc2c1)C(C)C  Vmax (Caspase-10 (CASP10, Homo sapiens, UniProt Q92851); substrate cleavage, substrate, fluorogenic AMC release; enzyme 0.25 activity units/µL): 476 ± 38.7 RFU/min
CC1CCN(C(=O)CCc2nc(CN3CCN(S(=O)(=O)c4ccc(Cl)cc4)CC3)no2)CC1  current fold increase (KCNQ2 (Homo sapiens, UniProt O43526); potassium current, activator, whole-cell patch clamp; CHO, stable; 20 µM; reference: current before compound): 1.14 ± 0.12
O=C(c1cc2c(s1)CCCCC2)N1CCC(n2c(=O)[nH]c3ccccc32)CC1  maximal current density (Trpc6 (Mus musculus, UniProt Q61143, E672D); ion current, agonist, whole-cell patch clamp; 100 µM, E672D mutant): 11.7 ± 1.02 pA/pF
Cc1cn([C@H]2C[C@H](O)[C@@H](COP(=O)(O)OP(=O)(O)C(Br)(Br)P(=O)(O)O)O2)c(=O)[nH]c1=O  kpol/Kd (POLB I260M; substrate, single turnover kinetics): 0.0043 ± 0.0011 µM⁻¹ s⁻¹
O=C(CCc1cn[nH]c1)N1CCOC(CC(c2ccccc2)c2ccccc2)C1 (centres unmarked)  Ca2+ dissociation rate (Troponin C, slow skeletal and cardiac muscles, with cTnI (TNNC1, Human, UniProt P63316, C35S/C84S/T53C); stopped-flow fluorescence; 50 µM, IAANS-labelled chimera): 49 ± 0.3 s⁻¹
COc1ccc(CCNc2nc(-c3ccccc3)cc(C(F)(F)F)n2)cc1OC  increase of binding (SCTR; Fluo-Sec binding, TR-FRET; HEK293 membranes, SNAP-tagged receptor; concentration not given, added: Fluo-Sec): 13%
O=P(O)(O)O[C@@H]1[C@@H](O)[C@H](O)[C@H](O)[C@H](O)[C@H]1OP(=O)(O)O  Hill coefficient (Inositol 1,4,5-trisphosphate-gated calcium channel ITPR1, N-terminal region (Itpr1, Rattus norvegicus, UniProt P29994, del318-332); [3H]IP3 competition binding; N-terminal fragment): 0.8 ± 0.1
Cc1cn([C@H]2C[C@H](O)[C@@H](COP(=O)(O)OP(=O)(O)C(F)(F)P(=O)(O)O)O2)c(=O)[nH]c1=O  kpol/Kd (POLB I260M; substrate, single turnover kinetics): 0.09 ± 0.04 µM⁻¹ s⁻¹
Nc1nc2c(ncn2[C@H]2C[C@H](O)[C@@H](COP(=O)(O)OP(=O)(O)[C@H](Cl)P(=O)(O)O)O2)c(=O)[nH]1  Kd ratio (DNA polymerase beta (POLB, Homo sapiens, UniProt P06746); quench-flow kinetics; opposite C; reference: S over R): ~3 fold
COc1cc(C(=O)NC2CCC(N3CCN(CC4CCC5(CCCC5)C4)CC3)CC2)c(F)cc1Nc1ncc2c(n1)N(C1CCCC1(F)F)CC(F)(F)C(=O)N2C (centres unmarked)  inhibition (NTRK2 (Homo sapiens, UniProt Q16620); cell-free assay, TR-FRET; 10 µM): 1.81%
COc1ccc(-c2cc(C(F)(F)F)nc(S(=O)(=O)CCCC(=O)Nc3ccccc3F)n2)cc1OC  Emax (SCTR; increase of tracer binding, TR-FRET; HEK293 membranes; added: Fluo-Sec 6 nM): 148 ± 13%
CCCCCCc1ccc(Oc2ccccc2N)c(O)c1  dissociation rate constant (Enoyl-[acyl-carrier-protein] reductase [NADPH] FabI; enzyme activity, inhibitor, progress curve kinetics): 0.88 h⁻¹
COc1cccc(-c2cc(C(F)(F)F)nc(NCc3ccc(F)cc3)n2)c1  Emax (SCTR; cAMP, agonist): 9.9%
CNS(=O)(=O)Nc1nccc(Cc2c(C)c3ccc(Oc4ncccc4F)cc3oc2=O)c1F  remaining binding (MAP2K2 (Homo sapiens, UniProt P36507); cell-free assay, competition with immobilised ligand; 1 µM): 0.05%
COc1ccc(-c2cc(C(F)(F)F)nc(S(=O)(=O)CCCC(=O)Nc3ccc(F)c(Cl)c3)n2)cc1OC  Emax (SCTR; increase of tracer binding, TR-FRET; HEK293 membranes; added: Fluo-Sec 6 nM): 142 ± 5.9%
Cc1ccc(NC(=O)CNS(=O)(=O)c2nc(-c3ccc(OC(F)(F)F)cc3)cc(C(F)(F)F)n2)cc1  dialkylated protein (WRN; intact protein mass spectrometry; overnight, 4 °C, relative peak abundance, added: 10-fold compound excess): ~25%
Nc1nc2c(ncn2[C@H]2C[C@H](O)[C@@H](COP(=O)(O)OP(=O)(O)CP(=O)(O)O)O2)c(=O)[nH]1  kpol/Kd (POLB I260M; nucleotide incorporation, substrate, single turnover kinetics; dG misincorporation opposite A): 3.1e-06 ± 1.2e-06 µM⁻¹ s⁻¹
CN1CCC=C(c2cc(F)cc3[nH]ccc23)C1  Emax (HTR2A (Homo sapiens, UniProt P28223); β-arrestin recruitment, agonist): 44.6%

Repeated from above:
O=P(O)(O)O[C@@H]1[C@@H](O)[C@H](O)[C@H](O)[C@H](O)[C@H]1OP(=O)(O)O  Hill coefficient (Inositol 1,4,5-trisphosphate-gated calcium channel ITPR1, N-terminal region (Itpr1, Rattus norvegicus, UniProt P29994, del318-332); [3H]IP3 competition binding; N-terminal fragment): 0.8 ± 0.1
COc1ccc(-c2cc(C(F)(F)F)nc(S(=O)(=O)CCC(=O)Nc3ccc(C)cc3)n2)cc1  dialkylated protein (WRN; intact protein mass spectrometry; overnight, 4 °C, relative peak abundance, added: 10-fold compound excess): < 10%
Cc1cn([C@H]2C[C@H](O)[C@@H](COP(=O)(O)OP(=O)(O)C(Br)(Br)P(=O)(O)O)O2)c(=O)[nH]c1=O  kpol/Kd (POLB I260M; substrate, single turnover kinetics): 0.0043 ± 0.0011 µM⁻¹ s⁻¹
CNS(=O)(=O)Nc1nccc(Cc2c(C)c3ccc(Oc4ncccc4F)cc3oc2=O)c1F  remaining binding (MAP2K2 (Homo sapiens, UniProt P36507); cell-free assay, competition with immobilised ligand; 1 µM): 0.05%
